Experimental data of several laboratories.
Each line is one published result; not all experiments were run side by side. Values joined by “and” are separate records of one study, mostly repeats; a detail may differ.
ABL1 phosphorylated: Tyrosine-protein kinase ABL1, phosphorylated (ABL1, Homo sapiens, UniProt P00519)
ABL1 E255K phosphorylated: Tyrosine-protein kinase ABL1, phosphorylated (ABL1, Homo sapiens, UniProt P00519, E255K)

Structure (SMILES)	target	test	conditions	how to read	remaining binding
C=C1CCCCCCCCCC(CO)C1=O (stereo not drawn)	ABL1 phosphorylated	cell-free assay, competition with immobilised ligand	10 µM	–	100%
COc1c(Cl)cccc1Nc1c(-c2ccncc2C#C[C@@]2(C)CCCN2C(=O)/C=C/CN(C)C)[nH]c2c1C(=O)NCC2	Tyrosine-protein kinase ABL1 (ABL1, Homo sapiens, UniProt P00519, F317I)	KINOMEscan competition binding	3 µM	relative to: control	74% and 96%
Cc1ccc(C(=O)Nc2cccc(C(F)(F)F)c2)cc1Nc1cncc(C(N)=O)c1	Tyrosine-protein kinase ABL1 (ABL1, Homo sapiens, UniProt P00519, F317L)	binding, competition with immobilised ligand	1 µM	–	22%
C=CC(=O)N1CCc2ccc(-n3c(=O)ccc4cnc5ccc(-c6cnn(C)c6)cc5c43)cc21	Tyrosine-protein kinase ABL1, phosphorylated (ABL1, Homo sapiens, UniProt P00519, Q252H)	KINOMEscan, refers to: (Q252H)-phosphorylated	1 µM	relative to: control	100%
COc1ccc(NC(=O)Nc2ccc3c(c2)C(=O)N(C(C)CO)CC(C)C(CN(C)Cc2ccc4c(c2)OCO4)O3)cc1 (stereo not drawn)	Tyrosine-protein kinase ABL1, non-phosphorylated (ABL1, Homo sapiens, UniProt P00519)	binding, competition with immobilised ligand	10 µM	–	100%
Nc1ncc2c(n1)-c1c([nH]c3ccc(C4=CCOCC4)cc13)CCC2	Tyrosine-protein kinase ABL1, non-phosphorylated (ABL1, Homo sapiens, UniProt P00519, F317I)	binding, competition with immobilised ligand	1 µM	–	90%
CCN1CCN(Cc2ccc(NC(=O)c3ccc(C)c(NC(=O)c4cncc(-c5cccs5)c4)c3)cc2C(F)(F)F)CC1	Tyrosine-protein kinase ABL1 (ABL1, Homo sapiens, UniProt P00519, M351T)	binding, competition with immobilised ligand	1 µM	–	0.4%
CNC1C[S+]2CC[S+]3CC[S+](C1)[Ru-4]321([N]=C=S)[n]2c3ccc(OC)cc3c3c4c(c5cc(F)c[n+]1c5c32)C(=O)NC4=O (stereo not drawn)	ABL1 E255K phosphorylated	KinomeScan	0.1 µM	relative to: untreated	77%
CC(=O)N1c2ccc(-c3ccc(CNC(=O)c4cn5cc(-c6cnc(N)nc6)nc(N6CCOCC6)c5n4)cc3)cc2CC[C@@H]1C	ABL1 E255K phosphorylated	KINOMEscan	10 µM, E255K, phosphorylated	–	85%
CC(C)=CC1OC(C)(C)C2C=C3C(=O)C(Cl)=CC(O)C3C3C(O)C4OC4C(=O)C132 (stereo not drawn)	ABL1 phosphorylated	cell-free assay, competition with immobilised ligand	10 µM	–	66%
CNc1ccc(-c2n[nH]c3c2CCN(C(=O)c2ccccc2)C3)cc1	Tyrosine-protein kinase ABL1 (ABL1, Homo sapiens, UniProt P00519, T315I)	cell-free assay, competition with immobilised ligand	10 µM	–	7.5%
CNS(=O)(=O)Nc1nccc(Cc2c(C)c3ccc(Oc4ncccc4F)cc3oc2=O)c1F	ABL1 E255K phosphorylated	binding, competition with immobilised ligand	10 µM	–	89%
CN1CCN(Cc2ccc(NC(=O)c3cccc(C#Cc4cnc(N)c5ncccc45)c3)cc2C(F)(F)F)CC1	ABL1 E255K phosphorylated	cell-free assay, competition with immobilised ligand	50 nM	–	2.3%
Cc1ccc(-c2c(/C=C(\C#N)C(=O)NC(C)C)n(CCCO)c3ncnc(N)c23)cc1	Tyrosine-protein kinase ABL1, phosphorylated (ABL1, Homo sapiens, UniProt P00519, F317I)	cell-free assay, competition with immobilised ligand	1 µM	–	74%
CNC(=O)C1CCN(c2cc(C)c(F)cc2NC(=O)c2ccc(-c3cc(O)ccc3C)c(C)c2)CC1	Tyrosine-protein kinase ABL1, non-phosphorylated (ABL1, Homo sapiens, UniProt P00519, F317L)	binding, competition with immobilised ligand	1 µM	–	72%

Some of these lines once more:
Structure (SMILES)	target	test	conditions	how to read	remaining binding
CCN1CCN(Cc2ccc(NC(=O)c3ccc(C)c(NC(=O)c4cncc(-c5cccs5)c4)c3)cc2C(F)(F)F)CC1	Tyrosine-protein kinase ABL1 (ABL1, Homo sapiens, UniProt P00519, M351T)	binding, competition with immobilised ligand	1 µM	–	0.4%
CNC1C[S+]2CC[S+]3CC[S+](C1)[Ru-4]321([N]=C=S)[n]2c3ccc(OC)cc3c3c4c(c5cc(F)c[n+]1c5c32)C(=O)NC4=O (stereo not drawn)	ABL1 E255K phosphorylated	KinomeScan	0.1 µM	relative to: untreated	77%
